Measurements from different studies.
A part holds a random share of what one study measured. Changes are numbered by the printed parent chain.

Block 1
Target: Sal-like protein 4, full length isoform B (SALL4, Homo sapiens, UniProt Q9UJQ4-2, residues 1-616)
Method: universal PBM
Molecule type: double-stranded DNA, one strand shown
Medium: in vitro
Tested at: not given
Setting: 8-mer, flanks averaged, mean of replicates
Reading: higher = stronger binding
Target sequence (chain): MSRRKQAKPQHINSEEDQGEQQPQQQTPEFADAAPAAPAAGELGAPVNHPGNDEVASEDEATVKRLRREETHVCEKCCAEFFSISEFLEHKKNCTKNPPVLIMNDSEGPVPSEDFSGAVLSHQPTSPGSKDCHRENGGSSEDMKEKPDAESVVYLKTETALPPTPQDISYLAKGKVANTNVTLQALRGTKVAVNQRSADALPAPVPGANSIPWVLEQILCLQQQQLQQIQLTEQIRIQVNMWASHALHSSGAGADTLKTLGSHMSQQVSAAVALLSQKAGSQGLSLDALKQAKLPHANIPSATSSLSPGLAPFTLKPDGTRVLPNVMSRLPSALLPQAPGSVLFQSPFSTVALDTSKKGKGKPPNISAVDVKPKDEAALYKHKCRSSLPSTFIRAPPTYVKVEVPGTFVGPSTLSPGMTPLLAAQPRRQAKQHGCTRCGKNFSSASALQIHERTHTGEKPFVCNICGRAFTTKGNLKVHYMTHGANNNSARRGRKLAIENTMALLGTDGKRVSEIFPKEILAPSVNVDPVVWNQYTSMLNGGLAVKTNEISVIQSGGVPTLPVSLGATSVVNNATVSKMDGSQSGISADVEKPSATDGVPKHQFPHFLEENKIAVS
Oligonucleotide	E-score
CAAGTTGC	-0.0399
CATGGCAC	-0.171
GCACATAA	0.255
GACGCGAA	-0.026
CTCTTGTC	-0.00498
GAGAATCC	-0.238
ATGCACGA	0.0477
CTGCAGGC	-0.295
CCGTACCC	-0.221
AACAGGGG	-0.189
AGGTCCTC	-0.19
CGGGTCGC	-0.24
CCACCGAC	-0.331
CCTGGCAC	-0.195
CCCAGTCC	-0.179
ATTCCCTG	-0.0473

Block 2
Target: CCND1, cyclin fold, Cln2 fusion (human)
Method: yeast growth competition, sequencing
Medium: yeast
Setting: weak parent motif
Relative to: not given
Reading: higher = stronger binding
Starting sequence: SLBP docking peptide (human); ARYKRKLLINDFG
Substitution	normalised enrichment score
ARYKRKLLKNDFG [I9K]	0.302
ARYKRQLLINDFG [K6Q]	0.726
ARYKRKLLISDFG [N10S]	-0.112
ARYKRKLLPNDFG [I9P]	0.395
ARYKRKLLITDFG [N10T]	0.0937
ARYKRKLLMNDFG [I9M]	-0.00598
ARDKRKLLINDFG [Y3D]	0.268
ARYKRKLLINHFG [D11H]	-0.234
ARYKRKLLWNDFG [I9W]	0.164
ARYKRKQLINDFG [L7Q]	0.0632
ERYKRKLLINDFG [A1E]	-0.277
ARYKAKLLINDFG [R5A]	0.228
ARKKRKLLINDFG [Y3K]	0.788
ARYKRKLTINDFG [L8T]	-0.15
ARQKRKLLINDFG [Y3Q]	0.209
ARYKRKLAINDFG [L8A]	0.108
ARYKRKLLINDPG [F12P]	-0.118
ARYKRKVLINDFG [L7V]	-0.403
ARYRRKLLINDFG [K4R]	-0.449

Block 3
Target: Interferon regulatory factor 7, full length, phosphomimetic (IRF7, Homo sapiens, UniProt Q92985, residues 1-503, S471D/S472D/S475D/S476D/S477D/S483D/S484D/S487D)
Method: protein-binding microarray
Molecule type: double-stranded DNA, one strand shown
Medium: in vitro
Tested at: 2200 nM top
Setting: 60-bp whole probe
Together with: salmon DNA 0.4 mg/ml
Relative to: random background probes
Reading: higher = stronger binding
Shared flanks, not repeated: GCCTAGCAC … GTCTTGATTCGCTTGACGCTGCTG
Construct (chain): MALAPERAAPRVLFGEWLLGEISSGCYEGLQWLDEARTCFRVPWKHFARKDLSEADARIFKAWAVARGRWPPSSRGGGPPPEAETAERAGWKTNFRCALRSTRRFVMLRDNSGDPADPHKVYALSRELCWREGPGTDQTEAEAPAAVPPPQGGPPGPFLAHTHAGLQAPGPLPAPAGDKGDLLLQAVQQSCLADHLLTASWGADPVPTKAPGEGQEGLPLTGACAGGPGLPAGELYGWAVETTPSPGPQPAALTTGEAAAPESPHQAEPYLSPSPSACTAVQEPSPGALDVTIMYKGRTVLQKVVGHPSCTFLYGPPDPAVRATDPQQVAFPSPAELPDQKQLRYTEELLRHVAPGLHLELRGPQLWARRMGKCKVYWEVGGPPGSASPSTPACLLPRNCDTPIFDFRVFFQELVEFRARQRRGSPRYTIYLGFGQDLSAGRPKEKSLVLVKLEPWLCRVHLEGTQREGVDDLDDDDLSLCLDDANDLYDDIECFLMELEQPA
Oligonucleotide	fitted relative affinity [z-score]
TTAGAACTGAGTCTCGATTAGTGCTAG	-0.212
TCATGTTTGGCCCTGAAACTGTGCTAG	1.04
AGGACCATCTCATATAAATAGGTGCTA	-0.319
GACGGTTACGGGTTTCGGGACGTGCTA	1.79
GACGGCATCGGGTATCGGGACGTGCTA	-0.824
GACGGACTGGGGTTACGGGACGTGCTA	-0.765
TTACATATCGGGTATCGATTAGTGCTA	1
TCATTTTGAGTTTTCCTACTGTGCTAG	2.32
TCATGTTTGAGAAATCAGACTGTGCTA	0.1
TTAGATATTGGGTTTCGATTAGTGCTA	2.77
TCATTATTTATTTTTACACTGTGCTAG	1.07
GACGGACTGGGGTATCGGCACGTGCTA	-0.884
TTATATTTCGGGTTTCGATTAGTGCTA	5.99
TTATAACTGGGGTATCGATTAGTGCTA	0.465
TTAGGTATCGGGTGTCGGTTAGTGCTA	0.114
GACGATTTCAGTATCGACACGTGCTAG	1.06
TTAGGTATCGGGACTGGGTTAGTGCTA	-0.245

Block 4
Target: Histone acetyltransferase KAT6A, both winged helices, GST fusion (KAT6A, Homo sapiens, UniProt Q92794, residues 1-181)
Method: protein binding microarray
Molecule type: double-stranded DNA, one strand shown
Medium: in vitro
Tested at: not given
Setting: 8-mer, flanks averaged, mean of 2 arrays, mostly near background
Relative to: not given
Reading: higher = stronger binding
Construct (chain): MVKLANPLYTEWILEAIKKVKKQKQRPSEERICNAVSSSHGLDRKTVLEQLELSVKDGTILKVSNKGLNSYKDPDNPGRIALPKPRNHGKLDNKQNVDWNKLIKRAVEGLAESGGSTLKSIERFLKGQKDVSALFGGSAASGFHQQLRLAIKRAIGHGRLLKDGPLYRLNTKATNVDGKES
Oligonucleotide	E-score
CCAGCCCA	-0.228
ACTGGAAC	-0.0867
ACAATCAG	-0.155
GCCGGACC	0.119
CCCAGCGC	0.164
AAGTAAAC	-0.145
CTGAGCAA	-0.0805
CCTCGCAG	-0.00043
AGTGCGGC	0.229
AGACGGGC	0.273
CTCCTTCA	-0.169
ACCTCGTC	-0.0176
GGAAATAC	-0.087
ACTGGTTG	-0.0296
GTTGACTA	-0.103
CAGGAGGA	-0.108

Block 5
Target: RNA binding protein fox-1 homolog 2, RRM domain, GST-SBP tag (RBFOX2, Homo sapiens, UniProt O43251-10, residues 100-194)
Method: RNA Bind-n-Seq
Molecule type: RNA
Medium: in vitro
Tested at: 365 nM
Setting: natural RNA segment, single round, ends assumed
Relative to: no-protein control
Reading: higher = stronger binding
Shared flanks, not repeated: GGGAGUUCUACAGUCCGACGAUC … UGGAAUUCUCGGGUGCCAA
Residues (chain): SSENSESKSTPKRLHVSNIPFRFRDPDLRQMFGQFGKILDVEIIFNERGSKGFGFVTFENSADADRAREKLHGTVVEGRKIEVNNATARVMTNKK
Oligonucleotide	RBNS enrichment (R)
CUGCAGACAGUUGGAUGAGUCCCUUAGAGAAGGCAUCCAGAGACAUAACUAAACUGAAUAUCAUCCCAUAUUGAUUUUAGGAAUUGACUCUAAAACUCUGUGCAGAAUCU	0.55
CAGGGAGUGGCAAAGCACUGACUCCUGAGCUCCCUUCCUCACUAGGACUCCAGUGUGACCCUGCACUGAGAGGACCAAAGCGUCAUUGCAGUCUUCUCUCCACCCUGUAC	0.414
UAUGUAAAACACAUGGCUUUUCCUGUGUAUAUUUUUAAAAAUUAAAGAAAUGCACAUUUAAAAAGUGUUUUGUGGAACCAGUCUGUAUAAAUGUGCCAGGUGACAAAGGU	0.524
AAGUCAGUUAAACCAUUUAGUUCAUCAGGAAUAUUUAAAAUAUUCUGCAUGAAUCCGUGUGGCUGUCGUCUUUGUUUACCAUGGCUGCUGCUGUGGGACUGUUUUUUCCU	0.251
GGGUCAGGAGUUGCAAGUUUAACUCCGUCCUCACUUGUAGCAUUGAAUGCCUCCUGUGCUGUCUAGUGGGACUACAGAAUGCUGUUUGAUACUGUGUGCGACGUGGAGAG	5.75
CACUACAUCUCAAGUGUUACAGACUCCCCUCCCGCUCUUUCUUGGGGAAGAGGGGGUGGGUAAGCGCCCUCCUUCCUGUUUUUAUCUAAUAAAAUGCUAACCUGCCCAGG	0.521
ACAAUUUAAUGUAUUCAGUUUUGACUGUGCUUCAUAUCAUGUACCUCUCUAGUCAAAGUGGUAUUACAGACAUUCAGUGACAAUGAAUCAGUGUUAAUUCUAAAUCCUUG	0.358
UUACUUCCCCUUCAUGCCUGUCUCCAGUAUCCACCCCAGCUUCUUUCUGAAUGUAAGGGAUUAAGAUAUCAGCUGUAAACUUAACUUUGUCUCCGAAUCUGAGAAUUCGA	1.01
AAAUUUCAACAAAUUGUCUUUGAGUCAGAAAAGUUAGAUAAUUCUUCAACUGUUUGAAAUAAUGCUCUCUGGGAGGCCAACAUUCCAAGAAUGUAUGAAGAACUGAAACC	0.385
AUAGUUUCCUCAAACACAAAUCAGUGUUCCCACGAACAAGUUCCAGUUGAGAAACACUAAGGUUAUGGUGAAUAAAACCAUAGGGAGCUUCUUCCCCCCAACCCCUGGCU	0.201
AACAAAAUAAUUUCUGUACUUUGGCAAUGUUACUCUAGUGUCUUCUCCCUAAUUCUUUUGUUUCUUUUGCAGAAUUAAGAAUAUUUCCUUGUUUAUUAGAUACAUCACUG	0.531
AGCGAUUCUCUUGCCUCAGCCUCCAGAGUAGCUGGGAUUACAGGCGCCCGCCAUCGUGCCCAGCUAAUUUUUAUAUUUUUAGUGGAGACAGGGUUUCGGGUUUCACCAUG	0.294

Mixed results
Substance	target	test	test system	conditions	how to read	measurement	value
PhoQ, residues 284 288 289 292 302 303 ALASRC	PhoP, residues 12 14 15 18 19 SYFRT (Escherichia coli, UniProt P23836)	Sort-seq, item: YFP reporter	E. coli	PhoQ-PhoP variant library, together with: 10 µM Mg2+	relative to: high Mg2+ state, higher = stronger signaling	fold induction	4.69

A few entries again (block 3):
Oligonucleotide	fitted relative affinity [z-score]
TTAGATATTGGGTTTCGATTAGTGCTA	2.77
TTAGGTATCGGGTGTCGGTTAGTGCTA	0.114
TCATGTTTGGCCCTGAAACTGTGCTAG	1.04
GACGGTTACGGGTTTCGGGACGTGCTA	1.79
TTATAACTGGGGTATCGATTAGTGCTA	0.465
TTATATTTCGGGTTTCGATTAGTGCTA	5.99
AGGACCATCTCATATAAATAGGTGCTA	-0.319
TTAGAACTGAGTCTCGATTAGTGCTAG	-0.212
TTAGGTATCGGGACTGGGTTAGTGCTA	-0.245
